Measurements collected from several papers.
Parts stem from different laboratories: compare values within a part only. Substitutions count along the parent as printed.

Set 1
Target: Sodium-dependent dopamine transporter (SLC6A3, Homo sapiens, UniProt Q01959)
UniProt Q01959, sequence (whole entry, looked up): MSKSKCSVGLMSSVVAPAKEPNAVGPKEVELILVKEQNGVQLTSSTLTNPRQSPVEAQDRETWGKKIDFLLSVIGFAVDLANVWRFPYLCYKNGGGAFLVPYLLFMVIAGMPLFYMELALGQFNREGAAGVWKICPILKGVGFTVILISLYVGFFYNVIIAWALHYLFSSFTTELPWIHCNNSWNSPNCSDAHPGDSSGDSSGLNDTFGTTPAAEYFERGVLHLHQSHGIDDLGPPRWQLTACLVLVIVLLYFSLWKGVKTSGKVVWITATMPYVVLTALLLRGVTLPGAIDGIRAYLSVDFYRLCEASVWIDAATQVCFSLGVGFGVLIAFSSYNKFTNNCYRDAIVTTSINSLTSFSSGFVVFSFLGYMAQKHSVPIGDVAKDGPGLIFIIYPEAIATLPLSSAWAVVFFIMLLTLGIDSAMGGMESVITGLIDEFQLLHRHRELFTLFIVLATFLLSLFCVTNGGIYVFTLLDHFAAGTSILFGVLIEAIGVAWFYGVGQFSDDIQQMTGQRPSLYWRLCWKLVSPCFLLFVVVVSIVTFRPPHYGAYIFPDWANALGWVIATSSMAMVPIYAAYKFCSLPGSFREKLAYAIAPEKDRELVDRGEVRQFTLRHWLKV
Effect on: binding
Method: radioligand binding
Concentration: 10 µM
`CNC(=O)c1ccc(Nc2ncc(C(F)(F)F)c(NCc3nccnc3N(C)S(C)(=O)=O)n2)cc1` has an inhibition of -6.06%.
The inhibition of `COc1cccc(CNC(=O)c2nc3scc(COCc4ccc(C(=O)O)cc4)c3c(=O)[nH]2)c1` is reported as 9.28%.
`CC(=O)Nc1nc(CN2CCC[C@H](Cc3cc(C)nc(C)c3)C2)cs1` has an inhibition of 81.9%.
With `O=C(NC[C@@H]1[C@H]2CN(C(=O)OCc3cc(C(F)(F)F)cc(C(F)(F)F)c3)C[C@@H]12)c1ccc2[nH]nnc2c1` the inhibition was -2.65%.
With `CNC(=O)c1cc(C(=O)NC2CC2)cn(Cc2ccccc2)c1=O` the inhibition was -18.4%.
`O=C(O)c1cc(-c2ccc(C3CCNCC3)cc2)c2ccc(-c3ccc(C(F)(F)F)cc3)cc2c1` gave an inhibition of 37.7%.
With `COCCc1ccc(-c2c(C)nc3c(N4CCOCC4)ccnn23)cn1` the inhibition was 9.55%.
For `COc1nc2ccc([C@@](O)(c3ccccc3)C3CCN(C(C)=O)CC3)cc2c(Cl)c1Cc1ccc(-n2cccn2)cc1`, the inhibition was 21%.
`COc1cc(-c2cn(C3CCc4ccccc4N(CC(F)(F)F)C3=O)nn2)ccc1-n1ccc(C)n1` (centres unmarked) has an inhibition of 5.21%.

Set 2
Target: UBE2W UBC core domain (UniProt Q96B02)
Method: yeast two-hybrid
Matrix: yeast
Notes: mostly zero background
Relative to: not given
Direction: higher = stronger interaction
B1: RNF31 RING domain (UniProt Q96EP0); chain AFLRRLLAQECAVCGWALPHNRMQALTSCECTICPDCFRQHFTIALKEKHITDMVCPACGRPDLTDDTQLL
B2: TRIM37 RING domain (UniProt O94972); chain SVESIAEVFRCFICMEKLRDARLCPHCSKLCCFSCIRRWLTEQRAQCPHCRAPLQLRELVN
B3: TRIM60 RING domain (UniProt Q495X7); chain ALVNLQEESSCPICLEYLKDPVTINCGHNFCRSCLSVSWKDLDDTFPCPVCRFCFPYKSFRR
B4: RNF166 RING domain (UniProt Q96A37); chain GDSGLEAQYTCPICLEVYHRPVAIGSCGHTFCGECLQPCLQVPSPLCPLCRLPFDPKKVDK
B5: RLIM RING domain (UniProt Q9NVW2); chain SFGENDALKTCSVCITEYTEGNKLRKLPCSHEYHVHCIDRWLSENSTCPICRRAVLASGNRE
B6: RNF152 RING domain (UniProt Q8N8N0); chain ETLSQDSLLECQICFNYYSPRRRPKLLDCKHTCCSVCLQQMRTSQKDVRCPWCRGVTKLPPGFS
Residues (chain): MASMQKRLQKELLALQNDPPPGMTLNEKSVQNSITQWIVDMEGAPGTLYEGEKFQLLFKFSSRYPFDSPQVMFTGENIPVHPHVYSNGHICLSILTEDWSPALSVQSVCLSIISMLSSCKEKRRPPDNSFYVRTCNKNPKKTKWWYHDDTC
For `B1 (RNF31 RING domain)`, “lacZ reporter activity” read 0.
Under “lacZ reporter activity”, `B2 (TRIM37 RING domain)` is recorded as 0.
`KPDKMEETLTCIICQDLLHDCVSLQPCMHTFCAACYSGWMERSSLCPTCRCPVERICKNH (CHFR RING domain (UniProt Q96EP1))`: “lacZ reporter activity” 10800.
`B3 (TRIM60 RING domain)` — result for “lacZ reporter activity”: 0.
For `B4 (RNF166 RING domain)`, “lacZ reporter activity” read 0.
For `B5 (RLIM RING domain)`, “lacZ reporter activity” read 0.
For `AEADPLGRFTCPVCLEVYEKPVQVPCGHVFCSACLQECLKPKKPVCGVCRSALAPGVRAV (RNF114 RING domain (UniProt Q9Y508))`, “lacZ reporter activity” read 0.
`B6 (RNF152 RING domain)` — result for “lacZ reporter activity”: 7670.

Set 3
Target: CCNE1, cyclin fold, Cln2 fusion (human)
Method: yeast growth competition, sequencing
Matrix: yeast
Notes: strong parent motif
Relative to: not given
Direction: higher = stronger binding
Starting sequence: viral docking peptide; KGVKRKLFAEDSS
`K6I` — result for “normalised enrichment score”: 7.22.
`L7M` — result for “normalised enrichment score”: 1.17.
Under “normalised enrichment score”, `E10T` is recorded as 6.78.
For `F8Q`, “normalised enrichment score” read 0.554.
`R5I` — result for “normalised enrichment score”: 1.08.
`V3D`: “normalised enrichment score” -0.112.
Under “normalised enrichment score”, `F8M` is recorded as 1.06.
`D11Y` — result for “normalised enrichment score”: 6.79.

Mixed results
`CCN(CC)CCN1c2ccccc2Sc2ccccc21` has a CC50 of greater than 100 µM (HEK-293T/ACE2; 17.5 h).
